Measured values of several laboratories.
Lines come from different studies, so protocols differ. ± gives the spread as reported.

SMILES	test	system	conditions	scale	endpoint	result
CC(C)N(P(c1ccccc1)c1ccccc1)P(c1ccccc1)c1ccccc1.Cc1ccc(C(C)C)cc1.F[B-](F)(F)F.[Cl][Ru+]	item: ruthenium	BALB/c nude mice	ip, 5 mg/kg, 12 h	–	serum concentration	28.4 ± 10.7 ng/mL
CCCOc1ccc(S(N)(=O)=O)cc1-c1nc2c(CCC)nn(C)c2c(=O)[nH]1	–	healthy male humans, plasma	oral, 200 mg udenafil, together with: dapoxetine 60 mg	–	terminal half-life	11 ± 3.08 h
COC(=O)[C@H](CSSC[C@H](NC(=O)[C@H](Cc1ccccc1)NC(=O)[C@H](Cc1ccccc1)NC(=O)OC(C)(C)C)C(=O)OC)NC(=O)[C@H](Cc1ccccc1)NC(=O)[C@H](Cc1ccccc1)NC(=O)OC(C)(C)C	HR-SEM	100% aqueous medium	2 mg/mL, hollow sphere assemblies	–	particle size	279 ± 13.7 nm
[11CH3]c1ccc2nc(C3CCC3)n(-c3ccc4[nH]ncc4c3)c2n1	–	human female, thymus	–	–	absorbed radiation dose	2.9 µSv/MBq
NCCCC(=O)OCC(=O)c1cc(F)c(O)cc1F.O=C(O)C(F)(F)F	photolysis, item: GABA appearance	unbuffered water	–	–	quantum yield	0.21
CNC(CC(C)C)C(=O)NC1C(=O)NC(CC(N)=O)C(=O)NC2C(=O)NC3C(=O)NC(C(=O)NC(C(=O)NCCCNC(=N)N)c4cc(O)cc(O)c4-c4cc3ccc4O)C(O)c3ccc(c(Cl)c3)Oc3cc2cc(c3OC2OC(CO)C(O)C(O)C2OC2CC(C)(NCc3ccc(-c4ccc(Cl)cc4)cc3)C(O)C(C)O2)Oc2ccc(cc2Cl)C1O (stereo not shown)	–	mice	intravenous, 10 mg/kg	–	clearance	1.5 mL/min/kg
N=C(N)NCCC[C@@H]1NC(=O)[C@H](Cc2c[nH]c3ccccc23)NC(=O)[C@@H](CC2CCCCC2)NC(=O)[C@@H]2CCCN2C(=O)[C@@H](NC(=O)CCc2ccccc2)CCCNC1=O	–	C57BL/6J mouse, spinal cord	subcutaneous, 1 mg/kg, single dose, two-compartment model	–	redistribution rate constant (K21)	0.32 h⁻¹
CCCCOc1nc(N)c2[nH]c(=O)n(CCCN(CCCN3CCOCC3)Cc3cccc(CC(=O)OC)c3)c2n1	–	rat, Brown Norway	intratracheal, 0.3 mg/kg, 0.1167 h	–	dose remaining in lung	< 10%
CCCC[C@@H]1NC(=O)[C@@H](NC(=O)[C@H](CCC(=O)O)NC(=O)CNC(=O)CN2CCN(CC(=O)O)CCN(CC(=O)O)CCN(CC(=O)O)CC2)CCCCNC(=O)C[C@@H](C(N)=O)NC(=O)[C@H](C(C)C)NC(=O)[C@@H]2CCCN2C(=O)[C@H](CCCNC(=N)N)NC(=O)CNC(=O)[C@H](Cc2c[nH]c3ccccc23)NC(=O)[C@H](CCCNC(=N)N)NC(=O)[C@@H](Cc2ccccc2)NC(=O)[C@H](Cc2c[nH]cn2)NC(=O)[C@H](CCC(=O)O)NC1=O [gallium-67 labelled]	–	C57 mice, B16/F1 flank melanoma, tumour	intravenous, 0.037 MBq, 4 h	–	tumour uptake	8.12 ± 0.6 %ID/g
C/C(=N\OCCN1CCCC1)c1ccc(C(F)(F)F)cc1	–	liver microsomes	–	baseline: human over mouse	metabolic stability ratio	~3 fold
C=C(c1cc(F)c(C(=O)O)c(F)c1)c1cc2c(cc1C)C(C)(C)CCC2(C)C	–	Sprague-Dawley rat, male	oral, 100 mg/kg, 24 h, sesame oil vehicle	–	blood triglycerides	436 ± 227 mg/dL
CCCC[C@H](NC(=O)CNC(=O)CNC(=O)CN1CCN(CC(=O)O)CCN(CC(=O)O)CC1)C(=O)N[C@H]1CC(=O)NCCCC[C@@H](C(N)=O)NC(=O)[C@H](Cc2c[nH]c3ccccc23)NC(=O)[C@H](CCCNC(=N)N)NC(=O)[C@@H](Cc2ccccc2)NC(=O)[C@H](Cc2c[nH]cn2)NC1=O [copper-64 labelled]	–	female C57 mouse, B16/F1 melanoma, spleen	intravenous, 0.037 MBq, 24 h	–	tissue uptake	0.15 ± 0.06 %ID/g
CCCCN1C(=O)c2cccc3c(NCCCN4CCOCC4)ccc(c23)C1=O	–	aqueous medium	pH 6	–	fluorescence brightness	5080 M⁻¹ cm⁻¹
C[C@H](NC(=O)COC(=O)[C@H](C)NC(=O)CO)C(=O)O	–	water	pH 3, 50 °C	–	depolymerization half-life	53.5 h
NC12CNCCNCC(NCc3ccc(CNC(=O)CCCC(=O)NCc4ccc(-c5nncnn5)cc4)cc3)(CNCCNC1)CNCCNC2.[64Cu+2]	OLINDA dosimetry	kidneys	48 h pretargeting interval, together with: huA33-TCO pretargeting	–	mean absorbed dose	0.0538 rad/mCi
CC(C)(O)c1ncc([S@](N)(=O)=NC(=O)Nc2c3c(cc4c2CCC4)CCC3)s1	–	healthy human	oral, 100 mg once daily, day 14, spray-dried dispersion, geometric mean	–	AUC(0-tau)	96700 ng·h/mL
NCCCC(=O)OCC(=O)c1ccc(O)cc1F.O=C(O)C(F)(F)F	photolysis, item: disappearance of compound	unbuffered water	–	–	quantum yield	0.28
Cn1c(=O)oc2ccc(-c3ccc(CC(C#N)NC(=O)C4CNCCCO4)c(F)c3)cc21 (stereo not shown)	item: total protein decreased	human	40 mg single dose, fasted	–	subjects with TEAE	8.3%
COC(=O)C(c1ccccc1Cl)N1CCC(SCC(=O)c2cccc(OC)c2)C(=CC(=O)O)C1 (mixture of isomers)	HPLC-MS/MS	feline citrate plasma	100 ng/mL, 72 h, 4 °C, storage stability	–	deviation from nominal	3%
COc1cc(OC)cc(C2=C3C(C)=C(I)C(/C=C/c4c[nH]c5ccc([N+](=O)[O-])cc45)=[N+]3[B-](F)(F)n3c(/C=C/c4c[nH]c5ccc([N+](=O)[O-])cc45)c(I)c(C)c32)c1	–	dichloromethane	–	–	emission maximum	721 nm
CC[C@H](C)[C@H](NC(=O)[C@H](CC(C)C)NC(=O)[C@H](Cc1c[nH]c2ccccc12)NC(=O)[C@H](C)NC(=O)[C@@H](NC(=O)[C@H](Cc1ccccc1)NC(=O)[C@H](CC(=O)O)NC(=O)[C@H](CCCNC(=N)N)NC(=O)[C@H](C)NC(=O)[C@H](C)NC(=O)[C@H](CC(C)C)NC(=O)[C@H](C)NC(=O)[C@H](CC(=O)O)NC(=O)[C@H](CC(C)C)NC(=O)[C@@H](NC(=O)[C@@H](NC(=O)[C@H](C)NC(=O)[C@H](CC(C)C)NC(=O)[C@H](CCC(=O)O)NC(=O)[C@H](CO)NC(=O)[C@H](CO)NC(=O)[C@H](Cc1ccccc1)NC(=O)[C@@H](NC(=O)CNC(=O)[C@H](CCC(=O)O)NC(=O)CNC(=O)[C@@H](N)Cc1cnc[nH]1)[C@@H](C)O)[C@@H](C)O)[C@@H](C)CC)[C@@H](C)CC)C(=O)N[C@@H](C)C(=O)N[C@H](C(=O)N[C@@H](CCCCN)C(=O)N[C@H](C(=O)N[C@H](C(=O)N[C@@H](CC(=O)O)C(=O)N[C@@H](CCCCN)C(=O)N[C@@H](CCCCN)C(=O)N[C@@H](CCCCN)C(=O)N[C@@H](CCCCN)C(=O)N[C@@H](CCCCN)C(=O)N[C@@H](CCCCN)C(N)=O)[C@@H](C)O)[C@@H](C)CC)[C@@H](C)O	–	healthy humans, plasma	subcutaneous, 5 mg once weekly	–	effective half-life	124 h
CCNC(=O)[C@@]1(c2ccccc2)C[C@H]1CN	–	healthy men	oral, 60 mg, 0-120 h	baseline: dose	urinary excretion	18.2%

SMILES	test	system	conditions	scale	endpoint	result
N#Cc1ccc(-c2cc(=O)c3ccc4[nH]c(C(F)(F)F)nc4c3o2)cc1	–	liver microsomes	–	–	metabolic stability	stable
Brc1ccc(Nc2nc(NN=Cc3c[nH]c4ccccc34)nc(N3CCOCC3)n2)cc1	–	human liver microsomes	–	–	metabolic stability	stable
COc1ccc2cc(-c3ccc(-c4ccc(C)cn4)nc3)oc2c1	TCSPC	dioxane	–	–	fluorescence lifetime	1.47 ns
COc1cc(NC(C)=O)c2c(c1O)-c1c(OC)c(OC)cc3c1C(C2)N(C)CC3 (stereo not shown)	–	rat heart homogenate	100 µg/mL, 24 h, room temperature, post-preparative storage	–	remaining compound	95.4 ± 3.2%
Oc1cccc(-c2cccc(O)n2)n1.[Cl-].[Cl-].[Ru+2].c1cnc2c(c1)ccc1cccnc12.c1cnc2c(c1)ccc1cccnc12	shake flask	octanol/phosphate buffer	pH 6.70	–	logD	1.4
Cc1ccccc1/N=N/c1ccc(/N=N/c2c(O)ccc3ccccc23)c(C)c1	–	extracted rat blood QC samples	5.0 µg/L, 2 h, room temperature, short-term stability	–	measured concentration	5.26 µg/L
O=C(NC1CCCCC1)C(c1ccccn1)N(C(=O)CCl)c1cccc(F)c1 (racemic)	HPLC-MS	DPBS	6 h, 37 °C	–	conversion to pyridinium salt	~85%
COC(=O)c1ccc(-c2cn(Cc3cc(Cl)ccc3O[11CH3])nn2)cc1	PET, Logan plot	rhesus monkey, thalamus	dose not given, 40 min	–	volume of distribution	0.543 mL/cm³
COc1ccc(/C=C/c2ccc(-c3ccc(C)cn3)nc2)cc1	TCSPC	water, HEPES 100 mM	pH 7.4	–	radiative decay rate constant	0.04 ns⁻¹
CCCC1OC2CC3C4CCC5=CC(=O)C=CC5(C)C4C(O)CC3(C)C2(C(=O)COC(=O)CN(C)C)O1 (stereo not shown)	–	rat lung homogenate	200 µg/mL, 37 °C	–	time to complete hydrolysis	≤ 6 h
CC(C)[C@H](NC(=O)CNC(=O)[C@H](CCC(N)=O)NC(=O)[C@H](C)N)C(=O)O	–	human, plasma	intravenous infusion, 10 mg/kg single, 15 min infusion, geometric mean	–	AUC(0-last)	175 ng·h/mL
NCCC(=O)N1Cc2ccccc2-c2c(nnn2-c2nc(N)c3ncn(C4OC(CO)C(O)C4O)c3n2)-c2ccccc21 (mixture of isomers)	–	methanol	–	–	brightness	1.74 M⁻¹ cm⁻¹
NS(=O)(=O)c1ccc(N2N=C(C(F)(F)F)CC2c2ccc(F)cc2F)cc1 (stereo not shown)	–	male beagle dog, liver microsomes	20 µM, pH 7.4	baseline: human over dog	elimination rate ratio	8.6 fold
O=C1/C(=C/c2ccc(B(O)O)cc2)CC/C1=C\c1ccc(B(O)O)cc1	–	water	–	–	particle size	2880 nm
NCCCC(=O)OCC(=O)c1c(F)c(F)c(O)c(F)c1F.O=C(O)C(F)(F)F	photolysis, item: rearranged acid appearance	unbuffered water	–	–	quantum yield	0.1
Cc1[nH]c(/C=C2\C(=O)Nc3ccc(F)cc32)c(C)c1NC(=O)CCN1CCN(C)CC1	–	dog plasma	1.00 ng/mL nominal, three freeze-thaw cycles at -20 °C	–	accuracy deviation	-4.57%
CCCC(CCC)NC(=O)c1ccc(OC2OC(C(=O)O)C(O)C(O)C2O)c(O)c1 (stereo not shown)	–	female Sprague-Dawley rats, plasma	oral, 50 mg/kg of parent drug	baseline: 50 over 20 mg/kg dose	Cmax ratio	1.33
CC(C)c1cnc(-c2cc(Cl)ccc2F)cc1Nc1ccncc1C(=O)NC(CO)CO	item: anaemia	human patients	oral, dose not given, grade 1	–	patients with related SAE	0%
NC[C@@H](C(=O)Nc1ccc(-c2cn[nH]c2)cc1)c1ccccc1	OECD 405 eye irritation	New Zealand White rabbit, eye	topical, 0.1%, 73 h (day 4), scale 0 to 3	direction not given	conjunctival redness score	1
CC1=CC(C)=[N+]2C1=Cc1ccc(CCC(=O)N3CCN(C(=O)c4cc(Cc5n[nH]c(=O)c6ccccc56)ccc4F)CC3)n1[B-]2(F)F	ex vivo imaging	athymic nude NU/J mice, subcutaneous xenograft, U87 tumour	intravenous, 2.5 mg/kg, 90 min	–	mean fluorescence	20.5 AU/pixel
CC(C)[C@H](NC(=O)[C@@H]1CCCN1C(=O)[C@H](CCCNC(=N)N)NC(=O)[C@H](CS)NC(=O)[C@H](Cc1c[nH]c2ccccc12)NC(=O)[C@H](CCCNC(=N)N)NC(=O)[C@@H](Cc1ccccc1)NC(=O)[C@H](Cc1c[nH]cn1)NC(=O)[C@H](CCC(=O)O)NC(=O)[C@H](CS)NC(=O)[C@H](CS)NC(=O)CNC(=O)[C@@H]1CC(=O)N[C@@H](CCCNC(=N)N)C(=O)NCC(=O)N[C@@H](CC(=O)O)C(=O)N[C@H](Cc2ccc(O)cc2)C(=O)N1)C(N)=O [technetium-99m labelled]	–	C57 mouse, female, B16/F1 melanoma	intravenous, 0.037 MBq, 4 h	baseline: tumour over lung	tumour to tissue ratio	7.07

Excerpt of the above:
SMILES	test	system	conditions	scale	endpoint	result
CCNC(=O)[C@@]1(c2ccccc2)C[C@H]1CN	–	healthy men	oral, 60 mg, 0-120 h	baseline: dose	urinary excretion	18.2%
NCCCC(=O)OCC(=O)c1c(F)c(F)c(O)c(F)c1F.O=C(O)C(F)(F)F	photolysis, item: rearranged acid appearance	unbuffered water	–	–	quantum yield	0.1
CC(C)N(P(c1ccccc1)c1ccccc1)P(c1ccccc1)c1ccccc1.Cc1ccc(C(C)C)cc1.F[B-](F)(F)F.[Cl][Ru+]	item: ruthenium	BALB/c nude mice	ip, 5 mg/kg, 12 h	–	serum concentration	28.4 ± 10.7 ng/mL
CCCC1OC2CC3C4CCC5=CC(=O)C=CC5(C)C4C(O)CC3(C)C2(C(=O)COC(=O)CN(C)C)O1 (stereo not shown)	–	rat lung homogenate	200 µg/mL, 37 °C	–	time to complete hydrolysis	≤ 6 h
Cc1[nH]c(/C=C2\C(=O)Nc3ccc(F)cc32)c(C)c1NC(=O)CCN1CCN(C)CC1	–	dog plasma	1.00 ng/mL nominal, three freeze-thaw cycles at -20 °C	–	accuracy deviation	-4.57%
O=C1/C(=C/c2ccc(B(O)O)cc2)CC/C1=C\c1ccc(B(O)O)cc1	–	water	–	–	particle size	2880 nm
[11CH3]c1ccc2nc(C3CCC3)n(-c3ccc4[nH]ncc4c3)c2n1	–	human female, thymus	–	–	absorbed radiation dose	2.9 µSv/MBq
